Experimental data from different studies.
Each numbered part is a random draw from the data of one study; scales do not carry over between parts. Substitutions count along the parent as printed.

Study 1
Target: CCNA2, cyclin fold, Cln2 fusion (human)
Technique: yeast growth competition, sequencing
Matrix: yeast
Notes: strong parent motif
Baseline: not given
Direction: higher = stronger binding
Parent: viral docking peptide; KKVKRRLFETREL
Substitution	normalised enrichment score
KKAKRRLFETREL [V3A]	5.16
KKVKRRLFETAEL [R11A]	6.03
KKVKRRLFEAREL [T10A]	5.93
KKVKARLFETREL [R5A]	1.8
KKVKRRLLETREL [F8L]	1.14
AKVKRRLFETREL [K1A]	5.41
KKVKRALFETREL [R6A]	4.75
KKVKRRAFETREL [L7A]	1.54
KKVKARAFETREL [R5A L7A]	0.731
KKVKKRLFETREL [R5K]	4.86

Study 2
Target: PABPC1L2, full length, GST fusion (mouse, UniProt A0ABA7IW68)
Technique: RNAcompete
Form: RNA
Matrix: in vitro
Concentration: 20 nM
Notes: 7-mer, probes averaged, single round
Baseline: mean of 7-mers
Direction: higher = stronger binding
Construct (chain): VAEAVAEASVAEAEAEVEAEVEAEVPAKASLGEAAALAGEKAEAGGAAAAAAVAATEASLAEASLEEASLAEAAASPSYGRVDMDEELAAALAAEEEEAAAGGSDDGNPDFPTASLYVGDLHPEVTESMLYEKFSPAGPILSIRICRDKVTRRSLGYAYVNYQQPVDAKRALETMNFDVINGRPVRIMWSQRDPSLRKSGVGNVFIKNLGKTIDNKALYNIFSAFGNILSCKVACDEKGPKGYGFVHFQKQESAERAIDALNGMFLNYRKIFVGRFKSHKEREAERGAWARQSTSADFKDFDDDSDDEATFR
Sequence	7-mer Z-score
UAUACGU	-0.0627
ACAAACU	0.62
UUAUGGC	0.108
AUAAGCG	0.0732
CGGAUGG	0.0895
AUUUCAG	-0.257
UUCCUAU	-0.273
GUCCCGU	-0.338

Study 3
Target: Prothrombin, mature alpha-thrombin (F2, Homo sapiens, UniProt P00734)
Technique: aptamer microarray, sandwich
Form: DNA with 2'F-ANA
Matrix: in vitro
Concentration: 200 nM
Notes: whole 15-mer aptamer, many near background
Together with: Cy3 exosite-II aptamer, 400 nM
Direction: higher = stronger binding
Sequence: GGTTGGTGTGGTTGG
Modification	mean fluorescence intensity
2'F-ANA at 3 4 5 6 9 11 13 15	62 a.u.
2'F-ANA at 2 5 7 8 9 13 14 15	57.4 a.u.
2'F-ANA at 4 5 7 9 12 13 14 15	53.8 a.u.
2'F-ANA at 1 2 3 4 5 6 7 8 9 10 11 12 13 14	51.2 a.u.
2'F-ANA at 1 2 4 6 10 11 13 14	76.7 a.u.
2'F-ANA at 5 8 10 13 14	49.3 a.u.
2'F-ANA at 1 5 6 8 10 13 15	45.7 a.u.
2'F-ANA at 1 2 4 6 8 9 10 11 12 15	82.2 a.u.

Study 4
Target: HLA class I histocompatibility antigen, A alpha chain, allele A*80:01 (Homo sapiens, UniProt P04439)
Read-out: peptide-MHC binding
Form: peptide
Concentration: concentration not given
Sequence	binding
AELIDSFTW	inactive
GIVCYNEEV	inactive
CLVSGLSSL	inactive
FTDNNELEF	inactive
FSDVSHWWQ	inactive

For quick reference, copied from above (study 2):
Sequence	7-mer Z-score
UUAUGGC	0.108
AUAAGCG	0.0732
